Experimental data pooled from the literature.
Every numbered part comes from another study and shows a few of its results, in no order. Positions count from the first letter of the parent shown.

Study 1 — method: protein binding microarray; molecule type: double-stranded DNA, one strand shown; medium: in vitro; concentration: not given; relative to: not given; direction: higher = stronger binding
Target: Histone acetyltransferase KAT6A, winged helix 1, GST fusion (KAT6A, Homo sapiens, UniProt Q92794, residues 1-85)
Setting: 8-mer, flanks averaged, mean of 2 arrays, mostly near background
Target sequence (chain): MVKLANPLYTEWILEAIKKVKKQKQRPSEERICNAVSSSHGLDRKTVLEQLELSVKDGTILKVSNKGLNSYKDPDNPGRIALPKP
With `CGGGTTCA` the E-score was 0.325.
With `AACTTTCG` the E-score was -0.174.
With `ACTGCCTC` the E-score was 0.0496.
For `GAAGATTA`, the E-score was 0.0727.
With `CTGTGCGA` the E-score was 0.00735.
For `AACAACAC`, the E-score was -0.168.
For `CACCTCTC`, the E-score was -0.0166.
`ACAGTCGT` has an E-score of 0.0713.
`TCCGAGGA` has an E-score of -0.106.
With `ACACACAC` the E-score was -0.187.
The E-score of `ATATACGG` is reported as 0.193.
The E-score of `AGCATGCG` is reported as 0.0962.
For `CCATTGCA`, the E-score was -0.15.
For `ATACAATG`, the E-score was -0.0963.
With `GGTCGGAA` the E-score was 0.0424.
With `ATCACTAG` the E-score was -0.0889.

Study 2 — method: RNA Bind-n-Seq; molecule type: RNA; medium: in vitro; concentration: 200 nM; setting: whole 134-nt RNA, ends assumed; with: 150 mM LiCl; relative to: input library; direction: higher = stronger binding; library: 7-deaza-guanosine replaces G
Target: Fragile X messenger ribonucleoprotein 1, C-terminal low-complexity region (Fmr1, Mus musculus, UniProt P35922)
For `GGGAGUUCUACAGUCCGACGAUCAAGUCCUGUGCUACACAUCGUAUGUACCGAAUCGGGCCCCGGGGCCCCGGCCCCGGGAAAGUAUUAUGUUACGCCGUUCGGAUCUGCACUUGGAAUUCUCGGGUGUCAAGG`, the log2 enrichment was -2.72.
`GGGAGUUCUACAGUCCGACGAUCAGUUCUAUCUCUGGGGUGACUGCCGCAUAUAACCGAGAACAGCUGUGGCUGGCCAAUGAAGGCCUGAUCACCAGGCUGCAGGCUCGCUGCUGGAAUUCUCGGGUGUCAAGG` gave a log2 enrichment of -1.04.
`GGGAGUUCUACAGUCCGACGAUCCACAGACAACACGCACCCACACAGACACAGAGGGAAGGGGUUGGGAUGGGGACAGGGUGCACAGCAGGGCGGGGUAUGACCCCAGCCCCUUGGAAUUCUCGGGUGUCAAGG` gave a log2 enrichment of 1.73.
The log2 enrichment of `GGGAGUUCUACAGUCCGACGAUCCUGUGCUACACAUCGUAUGUACCGAAUCGGGGAAAAAAAGGGGUUUUUUUGGGGAAAGGGGAAAGUAUUAUGUUACGCCGUUCGGAUCUGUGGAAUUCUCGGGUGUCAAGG` is reported as -1.66.
`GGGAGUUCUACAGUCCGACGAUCAGUCCUGUGCUACACAUCGUAUGUACCGAAUCGGGUGGGAAAAAAAGGGUUUUUGGGAAAGUAUUAUGUUACGCCGUUCGGAUCUGCACUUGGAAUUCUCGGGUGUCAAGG` gave a log2 enrichment of -1.97.

Study 3 — method: aptamer microarray, sandwich; molecule type: DNA with 2'F-ANA; medium: in vitro; concentration: 200 nM; with: Cy3 exosite-II aptamer, 400 nM; direction: higher = stronger binding; oligonucleotide: GGTTGGTGTGGTTGG
Target: Prothrombin, mature alpha-thrombin (F2, Homo sapiens, UniProt P00734)
Setting: whole 15-mer aptamer, many near background
For `2'F-ANA at 1 2 7 11 12 13 15`, “mean fluorescence intensity” read 223 a.u.
For `2'F-ANA at 3 4 5 9 10 11 13 15`, “mean fluorescence intensity” read 70 a.u.
`2'F-ANA at 3 5 7 8 9 10 11 15` — result for “mean fluorescence intensity”: 59.8 a.u.
Under “mean fluorescence intensity”, `2'F-ANA at 1 2 7 11 14` is recorded as 52.8 a.u.
For `2'F-ANA at 1 3 4 5 6 7 11 12 14`, “mean fluorescence intensity” read 46 a.u.
`2'F-ANA at 1 4 6 8 11 13 14`: “mean fluorescence intensity” 52.1 a.u.
Under “mean fluorescence intensity”, `2'F-ANA at 5 9 10 13` is recorded as 50.2 a.u.
For `2'F-ANA at 2 5 6 7 9 10 14`, “mean fluorescence intensity” read 49.5 a.u.
For `2'F-ANA at 1 3 4 7 8 9 11 12`, “mean fluorescence intensity” read 349 a.u.
Under “mean fluorescence intensity”, `2'F-ANA at 2 3 4 5 7 8` is recorded as 118 a.u.
For `2'F-ANA at 6 8 9 10 11 12 13 15`, “mean fluorescence intensity” read 151 a.u.
`2'F-ANA at 1 2 7 9 10 11` — result for “mean fluorescence intensity”: 50.8 a.u.
For `2'F-ANA at 1 2 3 4 6 7 8 10 12 15`, “mean fluorescence intensity” read 194 a.u.
`2'F-ANA at 5 6 9 10 15`: “mean fluorescence intensity” 45.1 a.u.
`2'F-ANA at 2 4 5 8 9 11 13`: “mean fluorescence intensity” 55 a.u.
Under “mean fluorescence intensity”, `2'F-ANA at 1 2 3 5 14` is recorded as 48 a.u.
`2'F-ANA at 4 5 6 7 10 13 14 15`: “mean fluorescence intensity” 49.7 a.u.
For `2'F-ANA at 2 5 6 8 9 11 13 14`, “mean fluorescence intensity” read 47 a.u.
`2'F-ANA at 2 4 5 6 7 9 10 11 12 13`: “mean fluorescence intensity” 69.4 a.u.
For `2'F-ANA at 4 6 8 10`, “mean fluorescence intensity” read 89.5 a.u.
`2'F-ANA at 2 4 5 10 12 15` — result for “mean fluorescence intensity”: 49.3 a.u.
`2'F-ANA at 1 2 3 4 5 6 7 9 11 12 13`: “mean fluorescence intensity” 74.5 a.u.

Study 4 — method: universal PBM; molecule type: double-stranded DNA, one strand shown; medium: in vitro; concentration: 600 nM; direction: higher = stronger binding
Target: Sal-like protein 4, full length isoform A (SALL4, Homo sapiens, UniProt Q9UJQ4, residues 1-1053)
UniProt Q9UJQ4, sequence (whole entry, looked up): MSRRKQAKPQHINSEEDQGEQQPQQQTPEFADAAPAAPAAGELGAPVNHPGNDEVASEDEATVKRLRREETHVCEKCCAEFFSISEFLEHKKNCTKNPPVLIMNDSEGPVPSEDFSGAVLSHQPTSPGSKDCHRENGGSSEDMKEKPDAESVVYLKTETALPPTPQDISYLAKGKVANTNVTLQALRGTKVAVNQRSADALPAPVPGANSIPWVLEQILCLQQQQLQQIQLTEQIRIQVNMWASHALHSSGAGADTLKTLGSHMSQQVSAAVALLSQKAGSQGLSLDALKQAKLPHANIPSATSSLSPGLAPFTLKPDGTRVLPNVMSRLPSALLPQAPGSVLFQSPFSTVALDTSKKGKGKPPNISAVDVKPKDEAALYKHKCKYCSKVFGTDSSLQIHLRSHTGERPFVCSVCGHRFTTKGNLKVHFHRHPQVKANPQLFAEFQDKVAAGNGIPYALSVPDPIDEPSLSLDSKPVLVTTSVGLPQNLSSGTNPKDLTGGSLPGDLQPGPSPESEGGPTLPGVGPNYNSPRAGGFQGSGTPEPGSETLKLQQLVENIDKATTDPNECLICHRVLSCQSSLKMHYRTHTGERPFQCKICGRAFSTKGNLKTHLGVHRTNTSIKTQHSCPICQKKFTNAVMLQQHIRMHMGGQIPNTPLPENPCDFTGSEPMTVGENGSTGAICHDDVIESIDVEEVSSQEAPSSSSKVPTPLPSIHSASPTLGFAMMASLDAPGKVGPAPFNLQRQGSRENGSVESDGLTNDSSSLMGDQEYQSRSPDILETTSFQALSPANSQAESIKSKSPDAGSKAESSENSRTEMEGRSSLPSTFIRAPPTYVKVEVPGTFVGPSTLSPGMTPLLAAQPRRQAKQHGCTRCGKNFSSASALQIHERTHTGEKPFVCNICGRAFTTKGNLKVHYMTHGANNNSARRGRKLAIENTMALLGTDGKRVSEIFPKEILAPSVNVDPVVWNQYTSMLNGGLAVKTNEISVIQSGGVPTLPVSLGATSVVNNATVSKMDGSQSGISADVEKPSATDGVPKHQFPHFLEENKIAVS
Setting: 8-mer, flanks averaged, mean of replicates
With `GCTAGGTA` the E-score was 0.0125.
The E-score of `CAAACACC` is reported as -0.0464.
For `AGCAATAC`, the E-score was 0.213.
The E-score of `CGTACACC` is reported as -0.0955.
For `AGGTCAAC`, the E-score was -0.0803.
`AGGTGTGG` has an E-score of -0.239.
The E-score of `ATTCAGTC` is reported as 0.0678.
The E-score of `GCTTATCC` is reported as -0.0728.
With `GGGTCCAC` the E-score was -0.328.
For `CTTCTTTA`, the E-score was 0.171.
The E-score of `AAGGTGTC` is reported as -0.107.
With `AAGTCGCC` the E-score was -0.311.
With `ATCCGGAC` the E-score was -0.284.
`CCTCGAAG` has an E-score of -0.122.
With `CAGCCGGA` the E-score was -0.158.
For `ATTAAAGC`, the E-score was 0.227.

Study 5 — method: DHFR PCA, deep sequencing; medium: yeast; with: (+)-ABA 17 µM; relative to: wild-type fitted maximum; direction: higher = stronger binding
Target: ABI1, truncated, D143A, DHFR fusion (Arabidopsis thaliana)
Setting: methotrexate growth selection, single substitutions
Starting sequence: PYL1, truncated, DHFR fusion (Arabidopsis thaliana); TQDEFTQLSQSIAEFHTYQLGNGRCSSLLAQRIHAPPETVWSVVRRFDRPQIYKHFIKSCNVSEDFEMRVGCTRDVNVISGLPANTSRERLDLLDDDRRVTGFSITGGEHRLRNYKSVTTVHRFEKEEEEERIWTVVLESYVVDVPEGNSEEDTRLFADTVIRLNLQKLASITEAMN
For `H110C`, “relative binding score” read -1.13%.
For `Q2K`, “relative binding score” read 84.1%.
For `F103D`, “relative binding score” read -15.4%.
`S104P` — result for “relative binding score”: -7.49%.
Under “relative binding score”, `V145S` is recorded as 15.5%.
Under “relative binding score”, `T154I` is recorded as 40.1%.
For `Q2D`, “relative binding score” read 89%.
For `R123A`, “relative binding score” read 95.2%.
`S171G`: “relative binding score” 80.2%.
`I52L`: “relative binding score” 86.8%.
Under “relative binding score”, `F15R` is recorded as 28.9%.
For `R74K`, “relative binding score” read -4.56%.

Other studies, line by line
Under “score relative, wild type, peptide”, `STTRRRLFVENDS` is recorded as 0 (human cyclin E2; cyclin docking binding, deep mutational scanning; peptide, yeast cyclin E2-Cln2 system; direction not given).

For quick reference, copied from above (study 2):
For `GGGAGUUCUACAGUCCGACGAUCAAGUCCUGUGCUACACAUCGUAUGUACCGAAUCGGGCCCCGGGGCCCCGGCCCCGGGAAAGUAUUAUGUUACGCCGUUCGGAUCUGCACUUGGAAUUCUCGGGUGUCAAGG`, the log2 enrichment was -2.72.
The log2 enrichment of `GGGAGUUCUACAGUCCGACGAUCCUGUGCUACACAUCGUAUGUACCGAAUCGGGGAAAAAAAGGGGUUUUUUUGGGGAAAGGGGAAAGUAUUAUGUUACGCCGUUCGGAUCUGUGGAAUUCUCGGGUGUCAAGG` is reported as -1.66.
`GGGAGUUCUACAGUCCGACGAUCCACAGACAACACGCACCCACACAGACACAGAGGGAAGGGGUUGGGAUGGGGACAGGGUGCACAGCAGGGCGGGGUAUGACCCCAGCCCCUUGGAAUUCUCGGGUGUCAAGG` gave a log2 enrichment of 1.73.
`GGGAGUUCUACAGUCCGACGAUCAGUUCUAUCUCUGGGGUGACUGCCGCAUAUAACCGAGAACAGCUGUGGCUGGCCAAUGAAGGCCUGAUCACCAGGCUGCAGGCUCGCUGCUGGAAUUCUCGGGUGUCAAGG` gave a log2 enrichment of -1.04.
`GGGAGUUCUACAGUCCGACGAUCAGUCCUGUGCUACACAUCGUAUGUACCGAAUCGGGUGGGAAAAAAAGGGUUUUUGGGAAAGUAUUAUGUUACGCCGUUCGGAUCUGCACUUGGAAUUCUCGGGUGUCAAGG` gave a log2 enrichment of -1.97.
